{"data": "Results gathered from unrelated publications", "note": "Protocols differ between the studies behind these lines. Numbers after ± are the reported error.", "UniProt P09936, sequence (whole entry, looked up)": "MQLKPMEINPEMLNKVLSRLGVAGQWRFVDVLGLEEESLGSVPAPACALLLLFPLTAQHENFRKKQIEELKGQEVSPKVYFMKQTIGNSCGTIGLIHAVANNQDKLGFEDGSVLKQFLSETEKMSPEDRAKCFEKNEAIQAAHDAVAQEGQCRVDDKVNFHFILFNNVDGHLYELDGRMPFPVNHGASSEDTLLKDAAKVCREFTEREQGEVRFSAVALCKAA"}
{"SMILES": "C[C@H](Cn1cnc2c(N)ncnc21)OCP(=O)(O)O", "test system": "Macaca nemestrina, plasma", "setting": "intravenous, dose not given, time-averaged", "quantity": "maximum DcNP-dissociated fraction", "result": "3.2%"}
{"SMILES": "Cc1cc(C)c2c(=O)cc(C(=O)Nc3nc4ccc(F)cc4s3)oc2c1", "test system": "sheep erythrocytes", "setting": "1 h, pH 7.5", "quantity": "maximum haemolysis", "result": "2.22%"}
{"SMILES": "COC(=O)c1c(C(=O)CCl)c(C)n(C2CC2)c1C", "tested on": "UCHL1 (Homo sapiens, UniProt P09936)", "test": "covalent, intact protein LC-MS", "setting": "12.5 µM", "quantity": "labelling", "result": "6.27%"}
{"SMILES": "COCCOc1nc(N)c2[nH]c(=O)n(Cc3ccc(C(=O)O)cc3)c2n1", "test system": "water", "quantity": "maximum solubility", "result": "~100 µM"}
{"SMILES": "Cc1c2oc3c(C)ccc(C(=O)N[C@@H]4C(=O)N[C@H](C(C)C)C(=O)N5CCC[C@H]5C(=O)N(C)CC(=O)N(C)[C@@H](C(C)C)C(=O)O[C@@H]4C)c3nc-2c(C(=O)N[C@@H]2C(=O)N[C@H](C(C)C)C(=O)N3CCC[C@H]3C(=O)N(C)CC(=O)N(C)[C@@H](C(C)C)C(=O)O[C@@H]2C)c(N)c1=O", "test system": "children with cancer, plasma", "setting": "dose not given, 5 min", "quantity": "maximum plasma concentration", "result": "186 µg/L"}
{"SMILES": "CCOc1ccc2nc(NC(=O)c3cc(=O)c4ccc(C)cc4o3)sc2c1", "test system": "sheep erythrocytes", "setting": "1 h, pH 7.5", "quantity": "maximum haemolysis", "result": "1.49%"}
{"SMILES": "CC(C)C(=O)O[C@@H](C)[C@H](O)[C@@H](Cc1ccccc1)C(=O)O", "test system": "sterile natural water, irradiated", "setting": "photolysis product", "quantity": "maximum share of applied radioactivity", "result": "16.2 % AR"}
{"SMILES": "Cc1cc(C#N)cc(C)c1Oc1nc(Nc2ccc(C#N)cc2)nc(N)c1Br", "test": "solvent-shift UV", "test system": "FaSSIF with 0.05% HPMCAS-M", "quantity": "maximum supersaturated concentration", "result": "95 µg/mL"}
{"SMILES": "O=C(O)CCN1C(=O)CSC1=S", "test system": "excised Bama miniature pig skin", "setting": "10 mM, 24 h, 32 °C, Franz cell, donor 30% ethanol saline", "quantity": "maximum flux", "result": "0.303 ± 0.005 µmol/cm²/h"}
{"SMILES": "CC(C)C(=O)O[C@H]1[C@H](C)OC(=O)[C@@H]1Cc1ccccc1", "test system": "sterile natural water, irradiated", "setting": "photolysis product", "quantity": "maximum share of applied radioactivity", "result": "61.6 % AR"}
{"SMILES": "COc1ccc(C(=O)O)cc1NC(=O)/C=C/c1ccc(-c2ccccc2C)cc1", "test system": "sheep erythrocytes", "setting": "1 h, pH 7.5", "quantity": "maximum haemolysis", "result": "2.73%"}
{"SMILES": "CC[C@H](C)[C@@H]1NC(=O)[C@H](CCCNC(=N)N)NC(=O)[C@H](CC(=O)O)NC(=O)[C@H](CC(C)C)NC(=O)[C@H](CCCCN)NC(=O)[C@H](CC(C)C)NC(=O)CNC(=O)[C@H](Cc2ccccc2)NC(=O)[C@@H](NC(=O)CNC(=O)[C@H](CCCCN)NC(=O)[C@H](CO)NC(=O)[C@H](CC(C)C)NC(=O)CNC(=O)[C@H](CCCCN)NC(=O)[C@H](CCCCN)NC(=O)[C@H](CC(N)=O)NC(=O)[C@H](C)NC(=O)CNC(=O)[C@H](CCCCN)NC(=O)[C@H](Cc2ccc(O)cc2)NC(=O)[C@H](CCCCN)NC(=O)[C@H](CCCNC(=N)N)NC(=O)[C@H](C)NC(=O)[C@H](CC(N)=O)NC(=O)[C@@H]2CCCN2C(=O)[C@H](Cc2c[nH]cn2)NC(=O)[C@H](CCC(=O)O)NC(=O)[C@H](CCC(N)=O)NC(=O)CNC(=O)[C@@H]2CCCN2)CSSC[C@@H](C(=O)O)NC(=O)CNC(=O)[C@H](CC(C)C)NC(=O)CNC(=O)[C@H](CO)NC(=O)[C@H](CCSC)NC(=O)[C@H](CO)NC(=O)CNC1=O", "test system": "human", "setting": "concentration not given", "quantity": "maximum DBP decrease", "result": "-2 mmHg"}
{"SMILES": "COC1/C=C/OC2(C)Oc3c(C)c(O)c4c(O)c(c5c(nc6cc(C)ccn65)c4c3C2=O)NC(=O)/C(C)=C\\C=C\\C(C)C(O)C(C)C(O)C(C)C(OC(C)=O)C1C (stereo not shown)", "test system": "sheep erythrocytes", "setting": "1 h, pH 7.5", "quantity": "maximum haemolysis", "result": "8.8%"}
{"SMILES": "C=CC(=O)NC1CCN(c2ncc3ncnc(Nc4ccc(Oc5ccc6c(c5)ncn6C)c(C)c4)c3n2)CC1", "test system": "tiny-TIM gastrointestinal model", "setting": "30 mg, fed state, high-fat meal", "quantity": "maximum bioaccessibility", "result": "51.3 ± 0.3 % recovery"}
{"SMILES": "O=C(CCCN1CCC(O)(c2ccc(Br)cc2)CC1)c1ccc(F)cc1", "test system": "sheep erythrocytes", "setting": "1 h, pH 7.5", "quantity": "maximum haemolysis", "result": "4.45%"}
{"SMILES": "COc1ccnc(C(=O)NCCO)c1OCOC(=O)C(C)C", "test system": "sterile natural water, irradiated", "setting": "photolysis product", "quantity": "maximum share of applied radioactivity", "result": "12.5 % AR"}
{"note": "A few entries again:"}
{"SMILES": "CC(C)C(=O)O[C@H]1[C@H](C)OC(=O)[C@@H]1Cc1ccccc1", "test system": "sterile natural water, irradiated", "setting": "photolysis product", "quantity": "maximum share of applied radioactivity", "result": "61.6 % AR"}
{"SMILES": "CCOc1ccc2nc(NC(=O)c3cc(=O)c4ccc(C)cc4o3)sc2c1", "test system": "sheep erythrocytes", "setting": "1 h, pH 7.5", "quantity": "maximum haemolysis", "result": "1.49%"}
